Measured values from different studies.
Numbered parts are unrelated; each lists some results of a single study. Positions count from the first letter of the parent shown.

Sample 1
Target: Ras GTPase-activating protein-binding protein 1, C-terminal RGG region (G3BP1, Homo sapiens, UniProt Q13283)
UniProt Q13283, sequence (whole entry, looked up): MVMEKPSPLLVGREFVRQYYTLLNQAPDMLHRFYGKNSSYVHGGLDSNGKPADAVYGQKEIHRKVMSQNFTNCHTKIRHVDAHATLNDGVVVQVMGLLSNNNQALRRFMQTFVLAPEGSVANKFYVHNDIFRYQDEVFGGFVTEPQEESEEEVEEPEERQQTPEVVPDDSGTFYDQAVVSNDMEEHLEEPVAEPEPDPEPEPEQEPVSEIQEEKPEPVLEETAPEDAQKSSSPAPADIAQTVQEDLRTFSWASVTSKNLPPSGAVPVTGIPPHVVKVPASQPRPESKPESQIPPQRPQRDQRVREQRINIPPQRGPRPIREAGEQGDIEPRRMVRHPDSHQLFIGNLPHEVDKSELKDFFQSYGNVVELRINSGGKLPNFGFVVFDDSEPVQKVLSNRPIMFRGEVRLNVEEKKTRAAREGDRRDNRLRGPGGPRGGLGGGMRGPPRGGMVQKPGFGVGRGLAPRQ
Method: RNA Bind-n-Seq
Form: RNA
Sample: in vitro
Concentration: 1 µM
Notes: whole 134-nt RNA, ends assumed
Together with: 150 mM KCl
Relative to: input library
Reading: higher = stronger binding
Measurement: log2 enrichment
All sequences stand within: GGGAGUUCUACAGUCCGACGAUC … UGGAAUUCUCGGGUGUCAAGG
UAACUUUAGAGGAGGAUCUGAUGGAUAUGGCAGUGGACGUGGAUUUGGGGAAGGCUAUAAUGGGUAUGGAGGAGGACCUGGAGGUGGCAA: -0.268
CACAGACAACACGCACCCACACAGACACAGAGGGAAGGGGUUGGGAUGGGGACAGGGUGCACAGCAGGGCGGGGAAAGACCCCAGCCCCU: -0.144
UUUCAGGGGAGCUCUUUGCUCAGGCCCCGGUGGAUCAGUUUCCUGGCACAGCUGUGGAGAGUGUGACGGAUUCCAGCAGGUACUUCGUGA: -1.85
UGAAGCGAGAAGCUGCCCUACCCCCAGUGAGCCCCCUGAAGGCGGCUCUCUCUGAGGAGGAGUUAGAGAAGAAAUCCAAGGCUAUCAUUG: -1.55
CACAGACAACACGCACCCACACAGACACAGAGGGAAGGGGUUGGGAUGGGGACAGGGUCCACAGCAGGGCGGGGUAGGACCCCAGCCCCU: -0.521

Sample 2
Target: ABI1, truncated, D143A, DHFR fusion (Arabidopsis thaliana)
Method: DHFR PCA, deep sequencing
Sample: yeast
Notes: methotrexate growth selection, single substitutions
Together with: (+)-ABA 58 µM
Relative to: wild-type fitted maximum
Reading: higher = stronger binding
Measurement: relative binding score
Starting sequence: PYL1, truncated, DHFR fusion (Arabidopsis thaliana); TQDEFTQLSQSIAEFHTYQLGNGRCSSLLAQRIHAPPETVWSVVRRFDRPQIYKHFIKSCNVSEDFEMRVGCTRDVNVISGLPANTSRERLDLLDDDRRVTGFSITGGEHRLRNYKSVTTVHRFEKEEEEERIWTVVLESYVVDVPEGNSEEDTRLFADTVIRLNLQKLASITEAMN; partner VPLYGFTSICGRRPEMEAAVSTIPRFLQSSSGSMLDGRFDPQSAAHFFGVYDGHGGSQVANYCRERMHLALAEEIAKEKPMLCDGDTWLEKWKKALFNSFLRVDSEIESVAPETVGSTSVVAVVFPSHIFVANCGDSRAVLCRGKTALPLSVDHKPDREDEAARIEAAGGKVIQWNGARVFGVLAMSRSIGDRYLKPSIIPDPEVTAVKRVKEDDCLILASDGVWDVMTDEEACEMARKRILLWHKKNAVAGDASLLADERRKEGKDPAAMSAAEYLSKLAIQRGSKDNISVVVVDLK
Y18Q: 71.9%
R45L: -7.29%
N114F: 12.3%
L91K: 12.8%
V76D: 0.158%
S80Q: 16%

Sample 3
Target: RNA binding protein fox-1 homolog 2, RRM domain, GST-SBP tag (RBFOX2, Homo sapiens, UniProt O43251-10, residues 100-194)
Method: RNA Bind-n-Seq
Form: RNA
Sample: in vitro
Concentration: 365 nM
Notes: natural RNA segment, single round, ends assumed
Relative to: no-protein control
Reading: higher = stronger binding
Measurement: RBNS enrichment (R)
All sequences stand within: GGGAGUUCUACAGUCCGACGAUC … UGGAAUUCUCGGGUGCCAA
Residues (chain): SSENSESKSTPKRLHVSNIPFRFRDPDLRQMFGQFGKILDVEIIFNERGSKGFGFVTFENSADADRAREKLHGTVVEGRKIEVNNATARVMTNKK
AAUGAUUUUCAAACUUUACAGCUUCAGAAUCACCCAGAGGGCUUGUUAAGACACUACUUGGUGGACCUCAACCCCAGAACCACCAAAUUUGGCAUUUCUAAGUUCCUAGG: 0.211
GAGGCACCCGACUACCACCACUCGGAAAGCCGCUAGUCCAGAUCGACUAGGGAGAGGCUUAGAUACUUUAGUGUAUUUAAAGAGCAUUUCAGUUAACUUUUUCAGCUAUU: 0.275
CAAGUUCACUUGGCCAGUAACUUAUCUAACAAACUGUUUUACCACACUAUCUUGACACUUGAUAGAAGAGCCUAUUAGGAGUCACAGUGGUUUCGUAGAGUAAAACCCAA: 0.277
CAGACCAGCUCCAAGCACUGCUUAGAACAACGGCUCACUCUGACCUUGCUACACAUCCAUUUGGGGUGGACUAUCAGACCAGGCAAGCCAGUCCUAAAGGCUUCUGUGAA: 0.193
GUCCUUCUUAGAGAUGAAGAAAUAAUAAGGAAACAUCUUUCAUAGCCACAUUAAAUAAGAGAAACUGAUAUACAUUAUUUUUUUCUUUUUAAAGAUGACUUAUAAGAACC: 0.485
CCGGAGCCGGCCUUCAGCAAAGGCCUCCUGGGUUCAGUGACAGCCUCAGGCAGGGAUGGUGCUUGAGGCUGGGUGCAGAGAUAUGCCUGCAUGGCUCUCUUGUAGCCAAA: 0.478
AUAUUUCAAAUUGCACACGUCACUCCAGCAUCUCUGUAAAAUAAUUGGAAUGAAAAUACUUCUUGCACUUAAACACUGCACAUGCCGUACUUUGAGGUUAGUCUGAAUCU: 1.35
AACACCUCCCCUCCCCCUCACUGUAGCCUUCGGCAACUGCGCCAAUCCCUUUAUACAAAGAAAAUAAAAGUAAGGCAUAUAAAUUUCCUCCAGCAAGCAAAUCUUGUGGG: 0.609

Single results of other studies
PhoQ, residues 284 288 289 292 302 303 TSTLRA  fold induction (PhoP, residues 12 14 15 18 19 NQCAL (Escherichia coli, UniProt P23836); Sort-seq, measured: YFP reporter; E. coli; PhoQ-PhoP variant library, together with: 10 µM Mg2+; relative to: high Mg2+ state, higher = stronger signaling): 10.7

Some of these lines once more (single results of other studies):
PhoQ, residues 284 288 289 292 302 303 TSTLRA  fold induction (PhoP, residues 12 14 15 18 19 NQCAL (Escherichia coli, UniProt P23836); Sort-seq, measured: YFP reporter; E. coli; PhoQ-PhoP variant library, together with: 10 µM Mg2+; relative to: high Mg2+ state, higher = stronger signaling): 10.7
